Assay results collected from several papers.
Lines come from different studies, so protocols differ. “And” joins repeats or separate records; there may be more than shown. ± gives the spread as reported.

COc1cc(F)c([C@@H]2CNC(=O)[C@H]2NC(=O)Nc2ccccc2)c(F)c1 — isovolumic relaxation time (rat, myocardial infarction; 1 mg/kg, 1008 h, 6 weeks after occlusion): 14 ± 3 ms
COc1cc2cc(-c3ccc(CC(=O)Nc4cc(C(C)(C)C(F)(F)F)no4)cn3)cnc2cc1OC — stable disease as best response (RECIST v1.1; RET-altered advanced solid tumour patients; oral, 150 mg once daily, phase I): 38%
O=C(O)CNC(=O)Cc1ccccc1 — sarcomere length (ventricular cardiomyocytes, C57BL/6 mouse; dose not given, 0.092 s): 1.72 µm
Cc1cccc(N(O)N=Nc2ccc(S(=O)(=O)Nc3nccs3)cc2)c1 — paw edema volume (carrageenan-induced paw edema; Wistar rat; oral, 100 mg/kg, 2 h after carrageenan, added: carrageenan 1% subplantar; higher = more edema): 5.81 ± 0.87 a.u.
COc1c(C)cnc(Cn2cc(C#CCCOP(=O)(O)O)c3c(Cl)nc(N)nc32)c1C — Hsp70 level increase (human patients, PBMCs; 48 mg/m^2; relative to: baseline): 300%
Cc1noc(C)c1-c1cc(C(O)(c2ccccn2)c2ccccn2)c2nc(C3CC3)[nH]c2c1 — maximum induction (refers to: HEXIM1 expression; human, peripheral blood; 3 mg, day 8, 1599 study): 12.5%
Cn1cc(Nc2nccc(-c3ccc4c(c3)CN(C3COC3)CC[C@H]4NC(=O)c3cn(C(C)(C)C)nn3)n2)cn1 — pathway activation z-score (refers to: xenobiotic metabolism signaling; splenic B cells, mice; 30 mg/kg, IgD-activated in vivo; relative to: vehicle, direction not given): 3.41
Cc1ccc(C(=O)OCc2ccc([C@@H](CN)C(=O)Nc3ccc4cnccc4c3)cc2)c(C)c1 — IOP (tonometry; NZW rabbit, magnetic bead-induced ocular hypertension; ocular, 0.02%, 0 h): 37.3 mmHg
CC(C)C[C@H](NC(=O)[C@@H](Cc1c[nH]c2ccccc12)NC(=O)[C@H](Cc1ccc(O)cc1)NC(=O)[C@H](CO)NC(=O)[C@H](Cc1c[nH]c2ccccc12)NC(=O)[C@H](Cc1c[nH]cn1)NC(=O)[C@@H]1CCC(=O)N1)C(=O)N[C@@H](CCCNC(=N)N)C(=O)N1CCC[C@H]1C(=O)NCC(N)=O — stable pubic hair stage (Tanner staging; Chinese girls, central precocious puberty; intramuscular, 22.5 mg day 1, month 6, month 6; relative to: baseline): 91.9%
CCN(O)N=Nc1ccc(S(=O)(=O)Nc2onc(C)c2C)cc1 — paw edema volume (carrageenan-induced paw edema; Wistar rat; oral, 100 mg/kg, 3 h after carrageenan, added: carrageenan 1% subplantar; higher = more edema): 5.21 ± 0.63 a.u.
NC(=O)c1cnc2[nH]ccc2c1N[C@@H]1[C@@H]2CC3C[C@H]1C[C@@](O)(C3)C2 — CD8+ naive T-cell change (flow cytometry; Japanese healthy men, blood; oral, 10 mg twice daily, 72 h after day 7 dose; relative to: baseline): -1.45%
O=C1c2ccncc2C(=O)c2c1[nH]c1ccccc21 — RV cardiomyocyte cross-sectional area (decreased; rat, female, monocrotaline PAH model, heart right ventricle; intravenous, 1 mg/kg every 48 h, days 17-27; relative to: monocrotaline plus saline): decreased
COc1ccc(-c2cncc(N[C@@H](C)c3cccc(NC(=O)c4cncc(C)c4)c3)n2)cc1OC — fold change (refers to: rno-miR-25-3p; rat SU5416/hypoxia model, lung; dose not given; relative to: SU5416/hypoxia vehicle): 1.51
COc1cc(Nc2ncc3c(n2)-c2ccc(Cl)cc2C(c2c(F)cccc2OC)=NC3)ccc1C(=O)O — relative tumour volume T/C (mouse, OS-1 osteosarcoma xenograft; oral, 5.2 mg/kg, day 21; relative to: vehicle): 1.97
C[C@H]1C[C@H]2CSC(N)=N[C@@]2(c2nc(NC(=O)c3ccc(OC(F)F)cn3)cs2)CO1 — percent change from baseline (refers to: Aβx-40; healthy adults, plasma; 540 mg single dose, 6 h post-dose; relative to: placebo): -63.3%
Cc1n[nH]c2ccc(-c3cc(OC[C@@H](N)Cc4ccccc4)cnc3-c3ccoc3)cc12 — log2 fold change (kinase binding, competitor, MIB/MS competition, refers to: RIM11; Candida albicans cell lysate; 1 µM; relative to: DMSO): -0.891
Cc1cc(NS(=O)(=O)c2ccc(N=NN(O)c3ccccc3)cc2)no1 — paw edema volume (carrageenan-induced paw edema; Wistar rat; oral, 100 mg/kg, 0 h (baseline), added: carrageenan 1% subplantar; higher = more edema): 3.6 ± 0.46 a.u.
COc1ncc(-c2nc3c(n2C(C)C)[C@H](c2ccc(Cl)cc2)N(c2cc(Cl)cn(C)c2=O)C3=O)c(OC)n1 — best overall response (antileukemic activity, refers to: treatment failure, indeterminate cause; human, acute myeloid leukaemia; 150 mg, high-dose, other doses): 16.7%
CCCN(O)N=Nc1ccc(S(=O)(=O)Nc2cc(C)on2)cc1 — paw edema volume (carrageenan-induced paw edema; Wistar rat; oral, 100 mg/kg, 0 h (baseline), added: carrageenan 1% subplantar; higher = more edema): 3.61 ± 0.41 a.u.
CNCc1cc(-c2ccccc2F)n(S(=O)(=O)c2cccnc2)c1 — gastric lesion area (rat, aspirin-induced ulcer; oral, 2 mg/kg, 4 h, added: aspirin 150 mg/kg): 37.9 ± 8.5 mm
COc1nc(NCc2cn(-c3ccc(NC(=O)c4ccccc4)cc3)nn2)nc(OC)n1 — IC50 (cell viability, MTT; normal colonocytes, rat; 72 h): 0.0584 ± 0.00822 µM
C[C@@H](NC(=O)N1C(=O)[C@H](Cc2ccnc(N)c2)[C@H]1C(=O)O)C1CCCCC1 — PT Emax (human; iv infusion, 1.5 mg/kg/h, 24 h, unit not given; relative to: baseline): 1.06
N#Cc1ccc2c(-c3ccncc3)c(-c3ccc(F)cc3)nn2c1 — log2 fold change (kinase binding, competitor, MIB/MS competition, refers to: CEK1; Candida albicans cell lysate; 10 µM; relative to: DMSO): 0.718
C=CCn1c(=O)c2cnc(Nc3ccc(N4CCN(C)CC4)cc3)nc2n1-c1ccc2c(n1)[C@@](O)(CC)CC2 — tumour volume difference (BALB/c nude mouse, BxPC-3 xenograft; oral, 60 mg/kg, 1 d on 6 d off ×4, day 28; relative to: vehicle): 372 ± 13.3 mm3
CN(C(=O)n1cnc(-c2ccc[n+]([O-])c2)c1)C1CCCCC1 — AUC(0-t) (refers to: PEA; human, plasma; 40 mg single dose): 370 ng·h/mL
C[C@H](Oc1ccc(Br)cc1-c1ccon1)C(=O)O — difference from placebo (relative refractory period; human, tibialis anterior muscle; 200 mg, SAD): 0.443 ms
N#Cc1ccn2c(-c3ccncc3)c(-c3ccc(F)cc3)nc2c1 — log2 fold change (kinase binding, competitor, MIB/MS competition, refers to: CTK1; Candida albicans cell lysate; 1 µM; relative to: DMSO): -0.0388
CC1(C)CCC(CN2CCN(c3ccc(C(=O)NS(=O)(=O)c4ccc(NCC5CCOCC5)c([N+](=O)[O-])c4)c(Oc4cnc5[nH]ccc5c4)c3)CC2)=C(c2ccc(Cl)cc2)C1 — EC50 (cell killing; canine lymph node CD3+ T cells, dog 39; 24 h): 0.048 µM
CC(=O)Oc1cc2c(s1)CCN(C(C(=O)C1CC1)c1ccccc1F)C2 (stereo not drawn) — patients with high residual reactivity (platelet aggregation, light transmission aggregometry; human patients, platelet-rich plasma; dose not given, 15 min, aggregation above 46%, added: ADP 5 µM): 100%
COc1ncnn2ccc(-c3cnc4nc(C)n(Cc5nnc([C@@H](C)F)o5)c4c3)c12 — marrow complete response as best response (Homo sapiens, relapsed or refractory AML or MDS; dose not given, splicing factor mutation-positive): 0%
NCC(=O)Nc1cncc(-c2nn3c(=O)cc(N4CCNCC4)nc3s2)c1 — inhibition of platelet aggregation (ADP-induced platelet aggregation, light transmission aggregometry; stable CAD patients on aspirin; subcutaneous, 0.075 mg/kg, 30 min post-dose, added: ADP 20 µM; relative to: placebo): 77.9%
C[C@@H]1CCN(C(=O)CC#N)C[C@@H]1N(C)c1ncnc2[nH]ccc12 — colon length difference (mice, DSS-induced colitis; 10 mg/kg, day 5, unit not given; relative to: DSS alone): -11.2
Cc1ccc(N(O)N=Nc2ccc(S(=O)(=O)Nc3onc(C)c3C)cc2)cc1 — paw edema volume (carrageenan-induced paw edema; Wistar rat; oral, 100 mg/kg, 4 h after carrageenan, added: carrageenan 1% subplantar; higher = more edema): 4.22 ± 0.89 a.u.
CC(C)NCC(O)c1ccc(O)c(O)c1 (stereo not drawn) — sarcomere length (ventricular cardiomyocytes, C57BL/6 mouse; dose not given, 0.42 s): 1.72 µm
C[C@@H](O)CCOC(=O)C[C@@H](C)O — metabolite level (refers to: C20:4 acylcarnitine; human, plasma; 60 min, log2-transformed values): -7.4 ± 0.69 µmol/L
Cc1cc(C)c(CNC(=O)c2cc(Cl)c3c(c2C)O[C@@](C)([C@H]2CC[C@H](N(C)C)CC2)O3)c(=O)[nH]1 — stable disease as best response (IWG criteria; relapsed/refractory AITL patients; dose not given): 5%
CO[C@H]1CC[C@H](N2C(=O)CNc3ncc(-c4ccc(C(C)(C)O)nc4)nc32)CC1 — p4EBP1 change from baseline (flow cytometry; stimulated T cells, human, blood; 60 mg single dose, 24 h, median; relative to: baseline): 6.2%
COc1cccc2c1C(=O)c1c(O)c3c(c(O)c1C2=O)C[C@@](O)(C(=O)CO)C[C@@H]3O[C@H]1C[C@H](N)[C@H](O)[C@H](C)O1 — IC50 (cell viability, MTT; normal colonocytes, rat; 72 h): 0.701 ± 0.043 µM
Cc1ccc(NC(=O)c2ccnc(C(F)(F)F)c2)cc1-c1cc(OCCO)nc(N2CCOCC2)c1 — complete response (MAPK-altered advanced solid tumour patients; dose not given, single-agent dose escalation): 0%
O=C(OC(C(F)(F)F)C(F)(F)F)N1CCN(Cc2cccc(Oc3ccccc3)c2)CC1 — k4 (PET blocking study; rhesus monkey, brain THA; 0.01 mg/kg, compound pretreatment, added: [18F]T-401 tracer): 0.0216 min⁻¹
Cc1cn(-c2ccc3n(c2=O)CCN([C@@H](C)[C@@H]2CC[C@H](c4cc(F)c(Cl)cc4C(F)(F)F)O2)C3=O)cn1 — CSF Aβ40 change (human, CSF; 360 mg once daily, 14 days, multiple dose, single LP; relative to: placebo): -49.9%
Cc1cccc(N(O)N=Nc2ccc(S(=O)(=O)Nc3cc(C)on3)cc2)c1 — paw edema volume (carrageenan-induced paw edema; Wistar rat; oral, 100 mg/kg, 1 h after carrageenan, added: carrageenan 1% subplantar; higher = more edema): 5.83 ± 0.77 a.u.
Cc1cc(F)cc2c(CCC(=O)N[C@@H]3C(=O)NC[C@H]3O)c(-c3ccc(F)cc3)[nH]c12 — UACR (mice, APOL1 G2, single copy; day 0, before treatment, added: IFNγ plasmid injection): 40.8 µg/mg and 13.7 µg/mg and 41.1 µg/mg and 9.99 µg/mg and 25.9 µg/mg and 28.4 µg/mg
N#Cc1ccc2c(c1)[C@H]1CCCN(C(=O)c3ccc4[nH]cnc4c3)[C@H]1C2 — 2 h postprandial glucose change (human clinical trial; oral, 240 mg once daily, 28 d, meal tolerance test): -2.5 mg/dL
Cc1noc(NS(=O)(=O)c2ccc(N=NN(C)O)cc2)c1C — paw edema volume (carrageenan-induced paw edema; Wistar rat; oral, 100 mg/kg, 2 h after carrageenan, added: carrageenan 1% subplantar; higher = more edema): 5.8 ± 0.67 a.u.
c1ccc(-c2n[nH]cc2-c2ccnc3ccccc23)nc1 — log2 fold change (kinase binding, competitor, MIB/MS competition, refers to: PBS2; Candida albicans cell lysate; 10 µM; relative to: DMSO): 1.55
COc1ccccc1[C@H](Cn1c(=O)n(C(C)(C)C(=O)O)c(=O)c2c(C)c(-c3ncco3)sc21)OC1CCOCC1 — serum leptin (human; 50 mg, post-treatment): 3.68 ± 2.97 ng/mL
CC(C)[C@H](C(=O)Nc1ccc(C(=O)NO)cc1)c1ccccc1 — tumour volume change (volumetric MRI; human; dose not given, 1512 days): 92.4%
CCN(O)N=Nc1ccc(S(=O)(=O)Nc2cc(C)on2)cc1 — paw edema volume (carrageenan-induced paw edema; Wistar rat; oral, 100 mg/kg, 2 h after carrageenan, added: carrageenan 1% subplantar; higher = more edema): 5.46 ± 0.66 a.u.
CCCNc1nc(Nc2ccc(C#N)cc2)ncc1C#CCCCNC(=O)[C@H](C)N(C)C(=O)/C=C/CN(C)C — marrow blasts (human; 75 mg twice daily, cycle 28 day 1): 1%
OC(CCN1CCCCC1)(c1ccccc1)C1CC2C=CC1C2 (stereo not drawn) — change in EEG Alpha1-power Pz-O1 (resting-state EEG; healthy elderly humans; oral, 4 mg, eyes open, LS mean; relative to: baseline): -21.6%

Excerpt of the above:
Cc1cc(NS(=O)(=O)c2ccc(N=NN(O)c3ccccc3)cc2)no1 — paw edema volume (carrageenan-induced paw edema; Wistar rat; oral, 100 mg/kg, 0 h (baseline), added: carrageenan 1% subplantar; higher = more edema): 3.6 ± 0.46 a.u.
COc1ncc(-c2nc3c(n2C(C)C)[C@H](c2ccc(Cl)cc2)N(c2cc(Cl)cn(C)c2=O)C3=O)c(OC)n1 — best overall response (antileukemic activity, refers to: treatment failure, indeterminate cause; human, acute myeloid leukaemia; 150 mg, high-dose, other doses): 16.7%
CCCN(O)N=Nc1ccc(S(=O)(=O)Nc2cc(C)on2)cc1 — paw edema volume (carrageenan-induced paw edema; Wistar rat; oral, 100 mg/kg, 0 h (baseline), added: carrageenan 1% subplantar; higher = more edema): 3.61 ± 0.41 a.u.
CNCc1cc(-c2ccccc2F)n(S(=O)(=O)c2cccnc2)c1 — gastric lesion area (rat, aspirin-induced ulcer; oral, 2 mg/kg, 4 h, added: aspirin 150 mg/kg): 37.9 ± 8.5 mm
COc1nc(NCc2cn(-c3ccc(NC(=O)c4ccccc4)cc3)nn2)nc(OC)n1 — IC50 (cell viability, MTT; normal colonocytes, rat; 72 h): 0.0584 ± 0.00822 µM
